Measured values gathered from unrelated publications.
A part holds a random share of what one study measured.
Sequence of UniProt Q13164 (whole entry, looked up): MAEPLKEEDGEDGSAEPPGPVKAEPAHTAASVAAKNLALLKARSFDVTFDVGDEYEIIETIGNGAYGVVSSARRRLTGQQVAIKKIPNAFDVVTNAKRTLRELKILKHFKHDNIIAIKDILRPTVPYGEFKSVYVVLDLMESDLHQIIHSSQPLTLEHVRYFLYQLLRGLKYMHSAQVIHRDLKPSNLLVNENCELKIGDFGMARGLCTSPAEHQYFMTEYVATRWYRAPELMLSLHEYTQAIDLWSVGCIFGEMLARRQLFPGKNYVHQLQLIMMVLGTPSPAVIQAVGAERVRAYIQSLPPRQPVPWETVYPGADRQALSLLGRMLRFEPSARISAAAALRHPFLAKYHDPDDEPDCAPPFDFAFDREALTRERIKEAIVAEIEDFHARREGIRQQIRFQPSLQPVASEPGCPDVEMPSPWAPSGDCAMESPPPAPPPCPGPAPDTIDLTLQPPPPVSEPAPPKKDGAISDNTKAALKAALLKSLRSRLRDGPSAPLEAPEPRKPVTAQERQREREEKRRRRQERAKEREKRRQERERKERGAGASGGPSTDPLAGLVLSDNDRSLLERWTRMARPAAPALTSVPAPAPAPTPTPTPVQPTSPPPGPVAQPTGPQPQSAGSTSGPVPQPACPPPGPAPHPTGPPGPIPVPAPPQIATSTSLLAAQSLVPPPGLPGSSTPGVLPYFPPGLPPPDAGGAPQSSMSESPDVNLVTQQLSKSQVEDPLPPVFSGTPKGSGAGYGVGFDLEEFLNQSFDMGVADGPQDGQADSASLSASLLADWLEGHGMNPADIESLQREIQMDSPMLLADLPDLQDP
Sequence of UniProt Q9UF33 (whole entry, looked up): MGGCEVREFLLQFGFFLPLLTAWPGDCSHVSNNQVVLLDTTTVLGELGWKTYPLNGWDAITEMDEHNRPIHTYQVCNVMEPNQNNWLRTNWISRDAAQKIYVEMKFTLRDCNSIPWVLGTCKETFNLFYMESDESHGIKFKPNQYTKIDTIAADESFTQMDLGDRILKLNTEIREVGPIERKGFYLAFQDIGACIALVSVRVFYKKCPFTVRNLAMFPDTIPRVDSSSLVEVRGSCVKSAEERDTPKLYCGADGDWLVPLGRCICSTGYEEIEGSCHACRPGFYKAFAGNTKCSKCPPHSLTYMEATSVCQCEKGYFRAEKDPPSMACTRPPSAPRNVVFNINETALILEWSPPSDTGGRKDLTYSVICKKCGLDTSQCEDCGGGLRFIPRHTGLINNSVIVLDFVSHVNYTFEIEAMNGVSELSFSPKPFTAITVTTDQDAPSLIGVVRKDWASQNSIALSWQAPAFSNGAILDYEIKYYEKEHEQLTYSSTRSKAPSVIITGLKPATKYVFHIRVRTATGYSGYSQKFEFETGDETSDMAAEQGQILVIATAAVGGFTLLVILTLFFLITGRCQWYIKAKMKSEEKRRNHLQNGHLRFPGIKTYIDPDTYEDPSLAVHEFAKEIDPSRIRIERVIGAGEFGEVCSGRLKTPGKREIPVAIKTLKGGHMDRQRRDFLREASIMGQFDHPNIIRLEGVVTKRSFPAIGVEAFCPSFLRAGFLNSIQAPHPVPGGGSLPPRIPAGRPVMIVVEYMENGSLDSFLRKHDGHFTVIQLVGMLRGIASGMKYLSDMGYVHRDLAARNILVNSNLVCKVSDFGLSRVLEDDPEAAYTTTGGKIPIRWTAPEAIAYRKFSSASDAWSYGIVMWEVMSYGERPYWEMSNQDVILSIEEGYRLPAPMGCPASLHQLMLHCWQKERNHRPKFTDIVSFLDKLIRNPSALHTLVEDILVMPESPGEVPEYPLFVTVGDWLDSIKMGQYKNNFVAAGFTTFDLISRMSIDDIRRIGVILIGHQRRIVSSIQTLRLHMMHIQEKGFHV
Sequence of UniProt Q96D53 (whole entry, looked up): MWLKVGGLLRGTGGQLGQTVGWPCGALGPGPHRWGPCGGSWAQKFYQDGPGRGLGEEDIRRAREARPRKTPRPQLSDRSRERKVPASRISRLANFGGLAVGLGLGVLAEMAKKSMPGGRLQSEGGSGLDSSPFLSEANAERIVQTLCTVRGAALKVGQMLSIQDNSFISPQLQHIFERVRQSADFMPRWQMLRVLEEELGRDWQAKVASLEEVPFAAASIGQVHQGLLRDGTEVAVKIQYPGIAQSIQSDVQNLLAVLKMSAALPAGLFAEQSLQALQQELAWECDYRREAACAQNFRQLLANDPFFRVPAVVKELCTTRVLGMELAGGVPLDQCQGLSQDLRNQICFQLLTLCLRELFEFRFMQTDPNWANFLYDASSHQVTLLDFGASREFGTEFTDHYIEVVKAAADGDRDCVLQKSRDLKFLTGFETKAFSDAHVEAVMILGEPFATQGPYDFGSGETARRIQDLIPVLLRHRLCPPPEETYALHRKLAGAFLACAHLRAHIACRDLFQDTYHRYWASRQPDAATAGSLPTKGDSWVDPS
Sequence of UniProt Q15139 (whole entry, looked up): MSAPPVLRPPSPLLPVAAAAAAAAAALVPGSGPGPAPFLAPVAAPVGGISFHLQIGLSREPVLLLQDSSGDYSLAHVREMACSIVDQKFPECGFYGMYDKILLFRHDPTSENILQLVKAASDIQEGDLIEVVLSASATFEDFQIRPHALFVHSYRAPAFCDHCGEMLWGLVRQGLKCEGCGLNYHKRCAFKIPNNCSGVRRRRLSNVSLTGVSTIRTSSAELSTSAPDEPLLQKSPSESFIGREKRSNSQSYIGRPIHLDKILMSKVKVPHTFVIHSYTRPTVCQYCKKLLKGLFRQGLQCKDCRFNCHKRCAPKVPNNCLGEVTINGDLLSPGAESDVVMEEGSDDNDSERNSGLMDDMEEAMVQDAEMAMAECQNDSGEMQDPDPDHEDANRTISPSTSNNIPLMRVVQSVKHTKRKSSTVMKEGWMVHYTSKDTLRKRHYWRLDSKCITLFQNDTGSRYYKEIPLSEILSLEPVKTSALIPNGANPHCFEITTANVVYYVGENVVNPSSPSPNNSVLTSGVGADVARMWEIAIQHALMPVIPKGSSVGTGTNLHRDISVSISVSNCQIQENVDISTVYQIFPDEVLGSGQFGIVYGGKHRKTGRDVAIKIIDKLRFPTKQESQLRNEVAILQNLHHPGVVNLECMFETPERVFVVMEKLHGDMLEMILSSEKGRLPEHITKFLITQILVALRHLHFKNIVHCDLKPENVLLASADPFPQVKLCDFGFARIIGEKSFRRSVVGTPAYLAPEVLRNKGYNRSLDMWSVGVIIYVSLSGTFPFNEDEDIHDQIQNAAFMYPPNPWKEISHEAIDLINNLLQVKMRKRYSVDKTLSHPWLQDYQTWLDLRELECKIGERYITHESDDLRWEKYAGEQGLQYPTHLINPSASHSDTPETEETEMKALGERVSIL
Sequence of UniProt Q6PHR2 (whole entry, looked up): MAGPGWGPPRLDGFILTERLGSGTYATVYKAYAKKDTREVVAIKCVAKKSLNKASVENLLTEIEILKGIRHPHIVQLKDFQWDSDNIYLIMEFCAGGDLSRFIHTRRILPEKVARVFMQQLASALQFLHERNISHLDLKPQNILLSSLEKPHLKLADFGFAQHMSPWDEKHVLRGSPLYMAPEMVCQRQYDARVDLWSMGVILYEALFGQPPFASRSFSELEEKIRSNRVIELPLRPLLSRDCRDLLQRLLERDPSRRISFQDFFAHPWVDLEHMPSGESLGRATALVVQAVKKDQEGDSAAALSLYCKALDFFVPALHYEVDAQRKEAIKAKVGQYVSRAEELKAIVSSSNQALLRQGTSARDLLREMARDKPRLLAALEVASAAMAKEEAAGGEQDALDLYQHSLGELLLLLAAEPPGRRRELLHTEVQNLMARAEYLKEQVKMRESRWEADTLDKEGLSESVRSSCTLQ
Sequence of UniProt P53779 (whole entry, looked up): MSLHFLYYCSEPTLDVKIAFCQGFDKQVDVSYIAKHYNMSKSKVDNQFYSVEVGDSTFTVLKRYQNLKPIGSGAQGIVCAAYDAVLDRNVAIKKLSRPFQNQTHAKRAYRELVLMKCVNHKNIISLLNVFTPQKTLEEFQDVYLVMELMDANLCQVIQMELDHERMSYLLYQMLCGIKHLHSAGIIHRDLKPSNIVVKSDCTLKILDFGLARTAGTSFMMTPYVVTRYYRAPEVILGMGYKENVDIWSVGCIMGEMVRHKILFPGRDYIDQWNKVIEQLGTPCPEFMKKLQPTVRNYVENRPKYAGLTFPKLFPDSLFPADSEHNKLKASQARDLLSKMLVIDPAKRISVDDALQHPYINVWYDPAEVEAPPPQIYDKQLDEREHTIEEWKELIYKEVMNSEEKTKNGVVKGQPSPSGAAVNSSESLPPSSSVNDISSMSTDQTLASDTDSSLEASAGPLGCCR
Sequence of UniProt Q00526 (whole entry, looked up): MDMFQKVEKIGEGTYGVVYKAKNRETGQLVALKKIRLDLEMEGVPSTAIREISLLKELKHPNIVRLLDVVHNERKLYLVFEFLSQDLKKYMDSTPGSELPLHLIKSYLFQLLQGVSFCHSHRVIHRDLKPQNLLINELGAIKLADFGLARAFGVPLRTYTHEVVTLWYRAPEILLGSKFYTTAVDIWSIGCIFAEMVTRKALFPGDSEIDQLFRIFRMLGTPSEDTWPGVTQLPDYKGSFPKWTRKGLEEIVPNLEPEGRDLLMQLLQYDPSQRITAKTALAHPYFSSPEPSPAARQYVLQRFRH

Set 1
Structure (SMILES): COc1ccc2cc(OCC3(C(=O)O)CN(C(=O)c4ccc(F)cc4)C3)ccc2c1
Technique: competition with immobilised ligand
Tested at: 1 µM
target | test | remaining binding
STK26 (Homo sapiens, UniProt Q9P289) | cell-free assay | 100%
RIOK2 (Homo sapiens, UniProt Q9BVS4) | cell-free assay | 100%
BTK (Homo sapiens, UniProt Q06187) | cell-free assay | 84%
Tyrosine-protein kinase ABL1, phosphorylated (ABL1, Homo sapiens, UniProt P00519, E255K) | binding | 100%
Tyrosine-protein kinase JAK1, JH1 (JAK1, Homo sapiens, UniProt P23458) | cell-free assay | 93%
Tyrosine-protein kinase ABL1, phosphorylated (ABL1, Homo sapiens, UniProt P00519, T315I) | cell-free assay | 84%
OXSR1 (Homo sapiens, UniProt O95747) | cell-free assay | 100%
EPHA3 (Homo sapiens, UniProt P29320) | cell-free assay | 92%
ULK3 (Homo sapiens, UniProt Q6PHR2) | cell-free assay | 86%
GRK7 (Homo sapiens, UniProt Q8WTQ7) | cell-free assay | 93%
GRK4 (Homo sapiens, UniProt P32298) | cell-free assay | 100%
Ribosomal protein S6 kinase alpha-1, N-terminal kinase domain (RPS6KA1, Homo sapiens, UniProt Q15418) | cell-free assay | 100%
PRKD1 (Homo sapiens, UniProt Q15139) | cell-free assay | 96%
PAK6 (Homo sapiens, UniProt Q9NQU5) | cell-free assay | 100%
NIM1K (Homo sapiens, UniProt Q8IY84) | cell-free assay | 100%
TIE1 (Homo sapiens, UniProt P35590) | cell-free assay | 100%
RET (Homo sapiens, UniProt P07949) | cell-free assay | 100%
MINK1 (Homo sapiens, UniProt Q8N4C8) | cell-free assay | 100%
MAPK10 (Homo sapiens, UniProt P53779) | cell-free assay | 85%
PAK4 (Homo sapiens, UniProt O96013) | cell-free assay | 94%
COQ8B (Homo sapiens, UniProt Q96D53) | cell-free assay | 100%
MAPK7 (Homo sapiens, UniProt Q13164) | cell-free assay | 100%
EPHA6 (Homo sapiens, UniProt Q9UF33) | cell-free assay | 100%
WNK2 (Homo sapiens, UniProt Q9Y3S1) | cell-free assay | 84%
CDK3 (Homo sapiens, UniProt Q00526) | cell-free assay | 83%

Set 2
Target: panel of 300 human kinases
Tested at: 0.5 µM
Reading: higher = more selective
SMILES | Gini score
O=C1NC(=O)C(c2c[nH]c3ccccc23)=C1c1c[nH]c2ccccc12 | 0.65
COc1cc2c(cc1OC)-c1[nH]nc(Nc3cccc(F)c3)c1C2 | 0.66
CCc1[nH]c(-c2ccc(OC)cc2)nc1-c1ccncc1 | 0.75
Oc1ccc(Nc2nc(-c3ccc(Cl)cc3)cs2)cc1 | 0.73
Cc1ccc(NC2=CC(=O)c3sc(C)nc3C2=O)cc1 | 0.58
CCN(CC)CCNC(=O)c1c(C)[nH]c(/C=C2\C(=O)Nc3ccc(F)cc32)c1C | 0.52
O=C1Cc2c([nH]c3ccc([N+](=O)[O-])cc23)-c2ccccc2N1 | 0.65

Set 3
Species: mouse
Medium: microsomes or S9
Tested at: 2 µM
Time: 0.5 h
SMILES | remaining compound
Cc1c[nH]c(CN2C[C@H]3CC[C@@H]2CN(C(=O)c2ccccc2)C3)c(C)c1=O | 86.9%
COc1ccc(CC(=O)NCc2csc(C)n2)cc1 | 48.2%
OCc1cc2nc(-c3ccc(OC4CCOC4)cc3)ccc2o1 (stereo not drawn) | 31.4%
CCOC(=O)c1ccc(NC2C=CC(=O)C2Nc2ccc(C(=O)OCC)cc2)cc1 (stereo not drawn) | 0.913%
c1ccc(-c2csc(Oc3ccncc3)n2)cc1 | 50.9%
CCc1ccccc1NC(=O)CN(C)C(=O)C1CCN(c2cnn(Cc3ccccc3)c(=O)c2)C1 (stereo not drawn) | 3.89%
O=C(Cn1cnc2c(nnn2-c2cccc(Cl)c2)c1=O)Nc1ccc2c(c1)OCCO2 | 85%
Cc1ccccc1S(=O)(=O)Nc1cccc2[nH]ccc12 | 79.2%

Set 4
Target: Calcium/calmodulin-dependent protein kinase type II subunit alpha (CAMK2A, Homo sapiens, UniProt Q9UQM7)
Sequence of UniProt Q9UQM7 (whole entry, looked up): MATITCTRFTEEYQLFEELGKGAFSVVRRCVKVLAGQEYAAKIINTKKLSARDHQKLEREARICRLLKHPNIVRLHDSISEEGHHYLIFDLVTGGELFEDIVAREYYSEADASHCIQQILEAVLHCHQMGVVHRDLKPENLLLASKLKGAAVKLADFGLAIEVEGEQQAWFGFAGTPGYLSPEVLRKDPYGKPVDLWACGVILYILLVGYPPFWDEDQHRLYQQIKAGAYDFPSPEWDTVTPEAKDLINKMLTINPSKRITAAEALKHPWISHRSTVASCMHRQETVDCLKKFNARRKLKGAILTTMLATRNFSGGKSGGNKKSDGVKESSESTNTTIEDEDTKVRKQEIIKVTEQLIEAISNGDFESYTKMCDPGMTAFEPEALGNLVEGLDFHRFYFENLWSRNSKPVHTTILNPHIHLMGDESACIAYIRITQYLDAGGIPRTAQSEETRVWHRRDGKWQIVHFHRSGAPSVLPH
Effect on: enzyme activity
Mode: inhibitor
Tested at: 10 µM
SMILES | inhibition
c1ccc(CN(CC2=NCCN2)c2ccccc2)cc1 | -10%
O=c1cccc[nH]1 | 3%
COC(=O)C1=COC(O[C@@H]2O[C@H](CO)[C@@H](O)[C@H](O)[C@H]2O)/C(=C/C(=O)O)C1CC(=O)OCCc1ccc(O)c(O)c1 (stereo partly drawn) | 9%
O=C1CCNC(=O)N1 | -1%
C=C1CC[C@]2(C)CC[C@]3(C)[C@H](CC[C@@H]4[C@@]5(C)CC[C@H](O)C(C)(C)[C@@H]5CC[C@]43C)[C@H]2[C@@H]1C | 33%
CC(=O)CCC(=O)O | -9%
COc1c(-c2ccc3cc(NS(C)(=O)=O)ccc3c2)cc(-n2ccc(=O)[nH]c2=O)cc1C(C)(C)C | 3%
Cc1c(C(=O)Nc2ccc(S(C)(=O)=O)cc2)cn(CCO)c1-c1ccccc1C(F)(F)F | -9%

Set 5
Structure (SMILES): O=C(Nc1cnn(-c2csc(C(=O)NC3COC3)c2)c1)Nc1ccccc1Cl
Effect on: enzyme activity
Tested at: 5 µM
Relative to: untreated control
target | remaining activity
STK4 (Homo sapiens, UniProt Q13043) | 94.5%
STK39 (Homo sapiens, UniProt Q9UEW8) | 83.3%
PRKCA (Homo sapiens, UniProt P17252) | 100%
HIPK4 (Homo sapiens, UniProt Q8NE63) | 97.2%
CSNK1A1L (Homo sapiens, UniProt Q8N752) | 106%
PHKG1 (Homo sapiens, UniProt Q16816) | 100%
